Published values pooled from the literature.
Lines come from different studies, so protocols differ. Numbers after ± are the reported error.

Structure (SMILES)	cell line	test	conditions	IC50
CCCCc1cc(CN(Cc2ccccn2)Cc2ccccn2)c(O)c(CN(Cc2ccccn2)Cc2ccccn2)c1	CHO-K1	cytotoxicity	72 h	38 ± 1 µM
Cc1nc(-c2ccc(Cl)cc2)nc(N2CCC(C)(N)CC2)c1Cc1ccccc1	SNU1197 (KRAS G12D)	cell viability, WST	72 h	7 ± 0.6 µM
[Cl][Au-][c]1n(-c2c(C(c3ccccc3)c3ccccc3)cc(C(c3ccccc3)c3ccccc3)cc2C(c2ccccc2)c2ccccc2)c2c([n+]1-c1c(C(c3ccccc3)c3ccccc3)cc(C(c3ccccc3)c3ccccc3)cc1C(c1ccccc1)c1ccccc1)-c1cccc3cccc-2c13	PSN1	cell growth or viability, MTT	72 h	> 50 µM
Cc1nn(-c2ccc(S(=O)(=O)N[C@H](CO)CC(C)C)cc2)c2nn3nnnc3nc12	CCD-841CoN	cell growth or viability, MTT	72 h	1.15 µM
CCC(C(=O)O)C1CCC(C)C(C(C)C(O)C(C)C(=O)C(CC)C2OC3(C=CC(NCc4cn(COC(=O)C(C)(C)C)nn4)C4(CCC(C)(C5CCC(O)(CC)C(C)O5)O4)O3)C(C)CC2C)O1 (stereo not drawn)	HMLER CD24low/CD44high	cell proliferation	72 h	3.34 ± 0.08 µM
CN1CCN(c2ccc(-c3ccc4[nH]c5ncc(/C=C/c6ccccc6)cc5c4c3)cc2)CC1	parental Ba/F3 (IL-3 dependent)	cell proliferation, [3H]-thymidine incorporation	–	0.84 µM
COC(=O)[C@H]1[C@H]2C[C@H]3O[C@@]4(CCN3C[C@H]2C[C@@H](OC(=O)c2cc(OC)c(OC)c(OC)c2)[C@@H]1OC)C(=O)Nc1cc(OC)c(-c2ccc(C)cc2)cc14	SU-DHL-4	cell growth or viability, trypan blue	72 h	1.39 µM
CC(C)c1cccc(C(C)C)c1N1CCN(c2c(C(C)C)cccc2C(C)C)C1=[Se].[Cl][Au]	PSN1	cell growth or viability, MTT	72 h	1.4 µM
COC1CCC(Nc2nc(-c3nccn3C)nc3sc(-c4ccn(C)n4)c(-c4ccccc4)c23)C1 (stereo not drawn)	NCI-H1975 (KRAS wild type)	Western blot, measured: phospho-Akt	6 h, added: EGF 15 min	~10 µM
Cc1sc2c(c1C)C(c1ccc(Cl)cc1)=N[C@@H](CC(=O)N1CCN(CC3CCN(C(=O)CN4CCC(Nc5cccc6c5cc(C#CCNc5ccc(P(C)(C)=O)cc5)n6CC(F)(F)F)CC4)CC3)CC1)c1nnc(C)n1-2	A549 p53 Y220C isogenic	cell growth	–	1 µM
C/C1=C\CC[C@@]2(C)O[C@H]2[C@H]2OC(=O)[C@@H](CSC(=S)N(C)Cc3cccnc3)[C@@H]2CC1	KG-1a	cell growth or viability, MTT	72 h	6.4 µM
CC(C)c1cccc(C(C)C)c1[N+]#[C][Pd-]([Cl])([Cl])=[C](Nc1cccc(CN[C](NC(C)(C)C)=[Au][Cl])c1)Nc1c(C(C)C)cccc1C(C)C	OVCAR-3	cell growth or viability	–	40 µM
CC(=O)OC[C@H]1O[C@@H](NC(=O)[C@@H](C)Cc2ccc(C(C)C)cc2)[C@H](OC(C)=O)[C@@H](OC(C)=O)[C@@H]1OC(C)=O	L1210	cell growth or viability	48 h	103 µM
CN1CCN(c2ccc(Nc3ncc(Cl)c(Nc4ccccc4NS(=O)(=O)C4CC4)n3)cc2)CC1	PC-9	cell growth or viability, CCK-8	48 h	0.0156 µM
CC(=O)OC[C@H]1O[C@@H](Oc2ccc(C#[C][Pt+])cc2)[C@H](OC(C)=O)[C@@H](OC(C)=O)[C@@H]1OC(C)=O.O=S(=O)([O-])C(F)(F)F.c1ccc(-c2cccc(-c3ccccn3)n2)nc1	CCD 19Lu	cell growth or viability	72 h	> 100 µM
CCCC(CCC)C(=O)[O][Pt]([NH2])([NH2])([Cl])([Cl])[O]C(=O)c1ccccc1OC(C)=O	PSN1	cell growth or viability, MTT	72 h	0.13 µM
C=CCc1ccc(OCc2nnc(SCC(=O)Nc3ccccc3C(=O)OC)o2)c(OC)c1	MCF7, SK-OV-3, PC-3	cell growth, MTT	–	≤ 10 µM
CC(C)c1cccc(C(C)C)c1-n1ccn(-c2c(C(C)C)cccc2C(C)C)c1=[Se].[Cl][Au]	PSN1	cell growth or viability, MTT	72 h	4.1 µM
C=C1C(=O)OC2CC3=C[C@@H](C/C(C)=C/C(OC(=O)Cc4cccc5ccccc45)[C@H]12)OC3=O (stereo partly drawn)	KATO III	cell growth or viability, MTT	24 h	0.65 µM
O=C([O][Ti+2][O]C(=O)c1ccc([P+]([Au-][Cl])(c2ccccc2)c2ccccc2)cc1)c1ccc([P+]([Au-][Cl])(c2ccccc2)c2ccccc2)cc1.c1cc[cH-]c1.c1cc[cH-]c1	CAKI-1	cell viability, XTT	72 h	1 µM
C/C1=C\CC[C@@]2(C)O[C@H]2[C@H]2OC(=O)[C@@H](CSC(=S)N(C)c3cccnc3)[C@@H]2CC1	KG-1a	cell growth or viability, MTT	72 h	9.3 µM

Structure (SMILES)	cell line	test	conditions	IC50
Cc1c(C)n(-c2c(C(C)C)cccc2C(C)C)c(=[Se])n1-c1c(C(C)C)cccc1C(C)C.[Cl][Au]	H157 spheroids	acid phosphatase	72 h, 3D spheroid	6.4 ± 0.1 µM
CNC(=O)C1CCN(c2cc(C)c(F)cc2NC(=O)c2ccc(-c3cc(O)ccc3C)c(C)c2)CC1	A673	cell growth or viability, ATP luminescence	72 h	8.76 µM
CC(=O)Oc1ccccc1C(=O)[O][Pt]([NH2])([NH2])([Cl])([Cl])[O]C(=O)C(Cl)Cl	2008 cisplatin-sensitive	cytotoxicity, MTT	72 h	0.61 ± 0.19 µM
COc1ccc(C[C@H]2COC(=O)[C@@H]2Cc2ccc(OCCCCCCCCC(=O)NO)c(OC)c2)cc1OC	MV4-11	cell growth or viability, CCK-8	48 h	1.93 µM
CC(C)c1cccc(C(C)C)c1[N+]#[C][Pd-]([Cl])([Cl])=[C](Nc1ccc(CN[C](Nc2c(C(C)C)cccc2C(C)C)=[Au][Cl])cc1)Nc1c(C(C)C)cccc1C(C)C	OVCAR-3	cell growth or viability	–	> 100 µM
COc1cc(-c2nc3ccc(C(=O)NCCCN4CCN(c5ccccn5)CC4)cc3n2C2CCC2)cc(OC)c1OC	293 T-BRE-Luc	reporter gene, inhibitor	6 h, added: BMP6-induced BMP6 500 ng/mL	0.97 µM
COc1cc(-c2cc(=O)c3c(O)cc(OC4OC(COC5OC(C)C(O)C(O)C5O)C(O)C(O)C4O)cc3o2)ccc1O (stereo not drawn)	MDA-MB-231-pcDNA breast cancer	cytotoxicity, resazurin reduction	72 h	> 100 µM
FC(F)(F)c1n[nH]cc1-c1nc2ccc3[nH]ncc3c2c2c1CCCCC2	MV4-11	cell growth or viability, resazurin	72 h	0.0091 µM
CC(C)=CCC1=C(O)c2c(occ(-c3ccc(O)cc3)c2=O)C(CC=C(C)C)(CC=C(C)C)C1=O	MDA-MB-231, Huh-7, KKU100, NHDF cells	cell viability, MTT	24 h	13.9 to 30.9 µM
CC(C)c1cccc(C(C)C)c1-n1c(Cl)c(Cl)n(-c2c(C(C)C)cccc2C(C)C)c1=[Se].[Cl][Ag]	LoVo-OXP (oxaliplatin-resistant)	MTT	72 h	0.7 ± 0.1 µM
Oc1ccc(C(=NNc2ccccc2)c2ccc(O)cc2)cc1	HCT-15 (KRAS G13D)	cell viability, CellTiter-Glo	72 h	25.1 ± 10.6 µM
Cc1cc(C)c(N[C](NCc2ccc(N[C](Nc3c(C(C)C)cccc3C(C)C)=[Pt-]([Cl])([Cl])[C]#[N+]c3c(C(C)C)cccc3C(C)C)cc2)=[Au][Cl])c(C)c1	OVCAR-3	cell growth or viability	–	> 100 µM
C=C(C)C(O)COc1c2occc2cc2ccc(=O)oc12 (stereo not drawn)	L5178Y	cell growth or viability, MTT	24 h	> 100 µM
CONC(=O)[C@H]1[C@@H](O)[C@@]2(O)c3c(cc(OC)nc3OC)O[C@@]2(c2ccc(C#N)cc2)[C@@H]1c1ccccc1	4T1-526	mRNA translation, inhibitor, puromycin incorporation	–	~0.007 µM
N#Cc1c(-c2ccc(Cl)cc2)cc(-c2cccc3ccccc23)n2c(Cc3ccccc3)nnc12	RKOp27	cell growth or viability, MTT	72 h	0.698 µM
CC(C)c1ccc(/C=C/C(=O)N[C@@H]2O[C@H](CO)[C@@H](O)[C@H](O)[C@H]2O)cc1	L1210	cell growth or viability	48 h	> 250 µM
CC1(C)Cc2c(-c3ccccc3)c(-c3ccc(Cl)cc3)c(CC(=O)O)n2C1	mouse Peritoneal macrophage	PGE2 release, inhibitor	LPS-stimulated	1.31 µM
COc1ccc([C@@H]2CC(=O)c3c(O)cc(O[C@@H]4O[C@H](CO[C@@H]5O[C@@H](C)[C@H](O)[C@@H](O)[C@H]5O)[C@@H](O[C@H]5O[C@H](CO)[C@@H](O)[C@H](O)[C@H]5O)[C@H](O)[C@H]4O)cc3O2)cc1O	MRC5	cell growth or viability, trypan blue	72 h	> 150 µg/mL
O=c1[nH]c(=O)n([C@@H]2O[C@H](CO)[C@@H](O)[C@H](F)[C@H]2O)cc1F	L1210	cell growth or viability	–	> 200 µM
CCCC/C=N/NC(=O)c1cc2cc(Nc3nccc(-c4cccnc4)n3)ccc2[nH]1	MCF-10A, LO2	cell growth, MTT	normal cell lines as group	> 50 µM
Cc1c(O)c(-c2nc(-c3ccccc3)c(-c3ccccc3)[nH]2)cc(-c2nc(-c3ccccc3)c(-c3ccccc3)[nH]2)c1O	human foreskin fibroblasts HFF	cell viability, colorimetric	72 h	257 µg/mL
